Published values collected from several papers.
Protocols differ between the studies behind these lines. Numbers after ± are the reported error.
Cell line: MOLT-4

| Structure (SMILES) | test | test system | conditions | how to read | measurement | result |
| --- | --- | --- | --- | --- | --- | --- |
| Cc1cc(-c2ccccc2)n(-c2nc(-c3ccc(Cl)cc3)c3c(NC(=O)c4ccccc4)nnc-3[nH]2)n1 | SRB |  | 10 µM, NCI60 single-dose screen | baseline: untreated | cell growth | 97.4% |
| COc1cc(OC)cc(C(=O)c2cc3c(-c4ccccc4)c(O)ccc3o2)c1 | cell proliferation |  | 72 h |  | IC50 | 12 ± 1 µM |
| Cn1cncc1C1=CN(c2ncnc3[nH]cnc23)CCS1 |  |  | leukemia |  | GI50 | 12.3 µM |
| COc1cc(OC)cc(C(=O)c2cc3c(-c4ccccc4)c(OC)ccc3o2)c1 | cell proliferation |  | 72 h |  | IC50 | > 50 µM |
| CCCN1CCN(c2ccc3[nH]c(-c4ccc5[nH]c(-c6ccc(C(F)(F)F)cc6)nc5c4)nc3c2)CC1 | SRB |  | 10 µM, 48 h |  | growth percent | -38.6% |
| O=C(Nc1nnc2n3c(nc(-c4ccc(Cl)cc4)c1-2)SCC3=O)c1ccccc1 | SRB |  | 10 µM, NCI60 single-dose screen | baseline: untreated | cell growth | 106% |
| O=c1ccn(Cc2cn(-c3cc4ccccc4oc3=O)nn2)c(=O)[nH]1 | NCI60 single-dose screen |  | 10 µM |  | growth percentage | 92.1% |
| CCCCN1CCN(c2ccc3nc(-c4ccc5nc(-c6cc(OC)ccc6OC)[nH]c5c4)[nH]c3c2)CC1 | SRB |  | 10 µM, 48 h |  | growth percent | 82.7% |
| Cc1n[nH]c2nc(-c3ccc(Cl)cc3)c3c(NC(=O)c4ccccc4)nnc-3n12 | SRB |  | 10 µM, NCI60 single-dose screen | baseline: untreated | cell growth | 105% |
| O=c1ccn(Cc2cn(-c3c4ccccc4nc4ccccc34)nn2)c(=O)[nH]1 | NCI60 single-dose screen |  | 10 µM |  | growth percentage | 79.5% |
| CN1CCN(c2ccc3[nH]c(-c4ccc5[nH]c(-c6ccc(C(F)(F)F)cc6)nc5c4)nc3c2)CC1 | SRB |  | 10 µM, 48 h |  | growth percent | 47.2% |
| C#C[C@@]1(O)[C@@H](CO)O[C@@H](n2ccc3c(N)ncnc32)[C@@H]1O | SRB |  | NCI-60 screen |  | TGI | > 100 µM |
| COc1cccc(C(=O)c2cc3c(-c4ccccc4)c(O)ccc3o2)c1 | cell proliferation |  | 72 h |  | IC50 | 47 ± 14 µM |
| CCCN1CCN(c2ccc3[nH]c(-c4ccc5[nH]c(-c6cc(OC)c(OC)c(OC)c6)nc5c4)nc3c2)CC1 | SRB |  | 10 µM, 48 h |  | growth percent | 62.6% |
| CCn1cc(-c2cc(Cn3ccoc3=N)cc3c2CCN([C@@H](C)c2cc(OC)ccn2)C3=O)c(C(F)(F)F)n1 | cell growth, inhibitor |  | 120 h |  | EC50 | 3.05 µM |
| CCCN1CCN(c2ccc3nc(-c4ccc5nc(-c6cc(OC)ccc6OC)[nH]c5c4)[nH]c3c2)CC1 | SRB |  | 10 µM, 48 h |  | growth percent | 77% |
| CCCC(CCC)C(=O)OCc1cn(-c2c3ccccc3nc3ccccc23)nn1 | NCI60 single-dose screen |  | 10 µM |  | growth percentage | 86.7% |
| CCCCN1CCN(c2ccc3[nH]c(-c4ccc5[nH]c(-c6cc(OC)c(OC)c(OC)c6)nc5c4)nc3c2)CC1 | SRB |  | 10 µM, 48 h |  | growth percent | 47% |
| NNc1nc(-c2ccc(Cl)cc2)c2c(NC(=O)c3ccccc3)nnc-2[nH]1 | SRB |  | 10 µM, NCI60 single-dose screen | baseline: untreated | cell growth | 107% |
| COc1ccccc1C(=O)c1cc2c(-c3ccccc3)c(O)ccc2o1 | cell proliferation |  | 72 h |  | IC50 | 13 ± 1 µM |
| Cc1cc(C)n(C(=S)[S][Au][PH](CCCCCC[PH]([Au][S]C(=S)n2nc(C)cc2C)(c2ccccc2)c2ccccc2)(c2ccccc2)c2ccccc2)n1 | cell growth, NCI-60 screen |  | leukemia |  | log10 TGI | -4.92 |
| O=C1NCCc2[nH]c(-c3ccncc3)cc21 | cytotoxicity, MTS | NCI60 panel | acute lymphoblastic leukaemia |  | IC50 | 6.98 µM |
| COc1ccc(C(=O)c2cc3c(-c4ccccc4)c(OC)ccc3o2)cc1 | cell proliferation |  | 72 h |  | IC50 | 1.4 ± 0.31 µM |
| O=C(Nc1nnc2[nH]c(=S)[nH]c(-c3ccc(Cl)cc3)c1-2)c1ccccc1 | SRB |  | 10 µM, NCI60 single-dose screen | baseline: untreated | cell growth | 100% |
| CCN(CC)c1ccc(C=NNC(=O)CSc2nc3ccccc3c(=O)n2Cc2ccc(S(N)(=O)=O)cc2)c(O)c1 | NCI five-dose screen |  |  |  | TGI | > 100 µM |
| COc1cnc2cccc(N3CCc4c(cc(Cn5ccnc5C)cc4-c4cn(C)nc4C(F)(F)F)C3=O)c2c1 | cell growth, inhibitor |  | 120 h |  | EC50 | 31.4 µM |

Excerpt of the above:
| Structure (SMILES) | test | test system | conditions | how to read | measurement | result |
| --- | --- | --- | --- | --- | --- | --- |
| COc1cc(OC)cc(C(=O)c2cc3c(-c4ccccc4)c(O)ccc3o2)c1 | cell proliferation |  | 72 h |  | IC50 | 12 ± 1 µM |
| Cn1cncc1C1=CN(c2ncnc3[nH]cnc23)CCS1 |  |  | leukemia |  | GI50 | 12.3 µM |
| COc1cc(OC)cc(C(=O)c2cc3c(-c4ccccc4)c(OC)ccc3o2)c1 | cell proliferation |  | 72 h |  | IC50 | > 50 µM |
| CCCN1CCN(c2ccc3[nH]c(-c4ccc5[nH]c(-c6ccc(C(F)(F)F)cc6)nc5c4)nc3c2)CC1 | SRB |  | 10 µM, 48 h |  | growth percent | -38.6% |
